Published values of several laboratories.
Each numbered part is a random draw from the data of one study; scales do not carry over between parts.

Study 1 — method: protein binding microarray; molecule type: double-stranded DNA, one strand shown; matrix: in vitro; concentration: not given; reference: not given; reading: higher = stronger binding; measurement: E-score
Target: Histone acetyltransferase KAT6A, winged helix 1, GST fusion (KAT6A, Homo sapiens, UniProt Q92794, residues 1-85)
Notes: 8-mer, flanks averaged, mean of 2 arrays, mostly near background
Construct (chain): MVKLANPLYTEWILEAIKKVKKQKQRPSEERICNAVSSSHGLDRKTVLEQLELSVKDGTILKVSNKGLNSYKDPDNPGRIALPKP
GTGGAGAA: -0.195
GAAGGTGA: -0.0731
AACAAAAG: -0.033
CTCCCCTA: -0.1
ACGTGTTC: -0.125
CGATTTGA: -0.157
AGGATAGA: -0.192
AGTAAGAT: -0.0548
AACGCGTC: 0.338
ATGACCAT: -0.086
GGAGCAGA: -0.0402
CACTAGTG: -0.101
CAGGATGA: -0.223
TCGCCCGA: 0.203
GGACGACC: 0.0281
ACGGGCCA: 0.152
ATTTTTTG: -0.0927
CGCACCCA: 0.0915
ATGTAACA: -0.137
CTCAAATA: -0.00184
CGGAGGGA: -0.0305
GACGCAAC: 0.223
CAACAGAC: -0.00931
AAGCGCTT: 0.314
ACTACGCG: 0.333

Study 2 — method: RNA Bind-n-Seq; molecule type: RNA; matrix: in vitro; concentration: not given; reference: input RNA pool; reading: higher = stronger binding; measurement: bound/input enrichment
Target: RING finger protein unkempt homolog, zinc fingers 1-6, GST-SBP tag (UNK, Homo sapiens, UniProt Q9C0B0, residues 30-357)
Notes: RNA with constant flanks, human and mouse sites, ends assumed
Shared flanks, not repeated: GGGAGUUCUACAGUCCGACGAUC … CAACAGAGGAUUGAGCAUCA
Target sequence (chain): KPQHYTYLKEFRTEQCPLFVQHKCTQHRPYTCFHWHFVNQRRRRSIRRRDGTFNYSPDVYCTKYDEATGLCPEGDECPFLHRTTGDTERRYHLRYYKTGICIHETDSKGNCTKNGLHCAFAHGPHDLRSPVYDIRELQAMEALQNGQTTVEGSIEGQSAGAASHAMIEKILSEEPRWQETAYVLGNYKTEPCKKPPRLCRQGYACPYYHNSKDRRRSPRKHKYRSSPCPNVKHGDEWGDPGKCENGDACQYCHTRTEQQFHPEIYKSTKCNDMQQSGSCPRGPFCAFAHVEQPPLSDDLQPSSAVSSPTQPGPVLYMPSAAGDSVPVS
CUGAGCACAGGGGAGUUCUUGAAACUCCCUUUUGAGCGUCUUGCCUUCGUGCUUUCCAGUAAUAGCCUUAAGCACUGUACUGAACUUGAGCUCUUUAAGGCUACCUGUCGUUGGCUUCGC: 0.0932 ratio
ACCGUAGAGUUUGCAGAUGAAGUACGAUUGUCCUUCAUUUGUACUGAAGUAGAUUGCAAAGUGGUUCAUGAAUUCAUUGGUGGCUACAUAUUUCUCUCAACACGUGCAAAAGACCAAAAC: 0.679 ratio
AAUGUGCUGCUCACAAGUUCUGACUCAAGUGUAAUUAUUCAACAAGCAGUACCUUCACCAACCUCAAGUACUGUAAUCACCCAGGCACCAUCCUCUAACAGGCCAAUUGUUCCUGUACCA: 0.118 ratio
ACAAAUGACAACCAGUCAGAAAGUUCAGUAUCUACCCCAUCUGCCUCAUUUGAACCUGAUGUAUGUGAAAAUCCCGAGUCCAAAAAUACAGAGCUUUGUGAGACACCAGCUACCUCUGAC: 0.18 ratio
GAAGAAGCCCAUAAACUCCCAGUAAAACAUUUUACUAAUCCAUAUUGUAACAUCUACCUGAAUAGUGUCCAAGUAGCAAAAACUCAUGCAAGGGAAGGGCAAAACCCAGUAUGGUCAGAA: 0.479 ratio
GACAACAAAAUUAUAGAAUGCAAAUUUGAGAACAACAGCUGGGUCUUCAUGAGACAGAGAACAGACAAAAGUUUUCCUAAUGCCUACAACACUGCCAUGGCUGUGUGUAACAGCAUCUCA: 3.55 ratio
CAUGCAAUCUUGUAAUGUGGCCUGAAAACAAGCUAACUGUAUUAGAAACUAUUCAAAAACUAGGUAUUUUUAGUGACCUGUAGGCAGUGGCAAAUACAGACAUGUGAACCUUGAAUACAU: 2.08 ratio
GAAAUUAAAAAUUACACAAAAGAGCAUAAUAAUUUAAUUCUGCUAAAUAAGGAUGUUCAACAGGAAAGCAGUGAGCAAAAAAAUAAAUCAACAGACAAAGGUGAAAAGAAGCCAGACAGC: 0.95 ratio

Study 3 — method: RNA Bind-n-Seq; molecule type: RNA; matrix: in vitro; concentration: 365 nM; reference: no-protein control; reading: higher = stronger binding; measurement: RBNS enrichment (R)
Target: RNA binding protein fox-1 homolog 2, RRM domain, GST-SBP tag (RBFOX2, Homo sapiens, UniProt O43251-10, residues 100-194)
Notes: natural RNA segment, single round, ends assumed
Shared flanks, not repeated: GGGAGUUCUACAGUCCGACGAUC … UGGAAUUCUCGGGUGCCAA
Residues (chain): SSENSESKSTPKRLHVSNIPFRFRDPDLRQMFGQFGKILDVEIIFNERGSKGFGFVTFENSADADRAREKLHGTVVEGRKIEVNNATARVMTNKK
AGUUUAGCAAGCAACUGAGAUUUAAGUCUCUCUGGCCCUAAGAGGUUUUUCCUCUUUGCUCCCUCCAAUCUUGAGAUUGGGUUUUGCUUUAGAGUGCAAGUAUCAUAAUU: 12.3
UAUUUGUUGGCAUGCUUACAACACAUGUCCAUUAAAGUUCAUUUGGUCCUUUUAUUUUCAUUGUUUUCUUGGUUAGUGAUUUCAUUUGCAUAAACAUUAAUUAUCUCUGC: 0.608
AUGCACAUACUUAAAGGACAGAAAUGUCUGGUAAAGUAAUUGUUAAAUAAUGAUAUGUAGCUUUUUAACUUUUUAAAUAAAUAAGAUUUUUUAAUGUGGGUCUCCCUCAG: 0.635
CAGAAGACUACAGGCUGGUGUCCCUAGAGGGCCCAAUACAGUCAAUUCCAACCUCUAAGUCGGGGAAAGGUGACAGGUUUCCUGGUGCUGGUGUGCACAGGGGCAGGCAG: 0.474
AGGCUUUACAUAAGAAAUUAUUAAACAAAACAAGGGGGGCAAUAAAUGUAUAUAACAUUAAUAAUGUCGCGUAGGUGUAGGUUCCUGGAUGCAUUUGGAUGUACAGACUG: 2.62
UAGCCUUGUGCCCAUUAGGUAACUGAACAAUGAUUCAGCUCUUAGAAUACCUAGGAAGACAGCAAGCAGGGUGACACACGGCUGUGAUCUAAGCAUUCAGAAGACAGAGG: 1.25
AUUUUUACAUCUAACAAAGUAAAAAAAUUAAAAAGAGGGUAAGAAACGAUUCCGGUGGGAUGAUUUUAACAUGCAAAAUGUCCCUGGGGGUUUCUUCUUUGCUUGCUUUC: 1.16
UUUGUGGUGGCUAAAGGAUCCAGUCCCCUUGGGUCUGUACAUCCCCUAUCCCAUACACGGGGCAGGAGGACGCCACAGACUGGACGCUGAGCGGCCCAGCUCUGGGGGGC: 0.242

Study 4 — method: RNAcompete; molecule type: RNA; matrix: in vitro; concentration: 20 nM; notes: 7-mer, probes averaged, single round; reference: mean of 7-mers; reading: higher = stronger binding; measurement: 7-mer Z-score
Target: PABPC1L2, full length, GST fusion (mouse, UniProt A0ABA7IW68)
Residues (chain): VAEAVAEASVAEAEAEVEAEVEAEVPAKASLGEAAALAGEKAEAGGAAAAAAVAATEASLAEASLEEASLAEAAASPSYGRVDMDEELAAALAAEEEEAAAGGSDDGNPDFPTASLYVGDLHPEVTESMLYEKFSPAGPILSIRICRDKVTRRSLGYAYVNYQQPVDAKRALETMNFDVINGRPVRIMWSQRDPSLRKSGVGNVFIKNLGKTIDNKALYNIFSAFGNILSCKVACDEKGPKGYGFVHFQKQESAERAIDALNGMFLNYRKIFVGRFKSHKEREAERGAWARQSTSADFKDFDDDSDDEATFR
UAUAAAC: 1.87
CCGCUGA: -0.237
ACGUUUU: -0.393
GUGCCAA: 0.0696
GGAGGAC: 0.485
CAUAGGG: 0.0587
ACGAAAA: 3.77
UUCGGAC: -0.251
AUCAAAG: 0.28
AACAUAA: 1.74
CUGCAGA: -0.124
CACUUUU: -0.108
GGUCCGG: -0.0826
UCCAGCA: -0.0464
CCGCCAG: -0.347
UUCACAA: -0.0156
GAUCAUC: -0.19
UAAGUGA: -0.11
UGCAUCU: -0.222
GGGGAUU: 0.289
AUACAAU: 0.349
UAAUUGU: -0.142
GUUAUUC: -0.402
CUAGUGG: -0.193
GGAACAA: 0.702

Study 5 — method: protein-binding microarray; molecule type: double-stranded DNA, one strand shown; matrix: in vitro; concentration: 940 nM top; notes: 60-bp whole probe; together with: salmon DNA 0.4 mg/ml; reference: random background probes; reading: higher = stronger binding; measurement: fitted relative affinity; shared flanks, not repeated: GCCTAGCAC … GTCTTGATTCGCTTGACGCTGCTG
Target: Interferon regulatory factor 5, full length, phosphomimetic (IRF5, Homo sapiens, UniProt Q13568-2, residues 1-514, S451D/S453D/S456D/S462D)
TTAGGTTTCAACACTGGGTTAGTGCTA: 2.55 z-score
GACGGTATCGCGTTTCGGGACGTGCTA: 1.74 z-score
TTAGGTAGCCTTTTCCTTTAGTGCTAG: -0.309 z-score
GACGGTATACTTCTCCTGACGTGCTAG: -0.11 z-score
TTAGGTTTCGGACTGGGTTTGTGCTAG: 7.82 z-score
TCACTTATCCTATCAGTACTGTGCTAG: 0.537 z-score
TTAGGTCTCGGTATCTGTTAGTGCTAG: 4.93 z-score
GACGTACTGGGACTGGGGACGTGCTAG: -0.594 z-score
GGCGAACTGGGGACTGGAGACGTGCTA: -0.151 z-score
GTCAGGGGTCTTGCTCTGTAGTGCTAG: -0.315 z-score
GACGGTTTCGGGTTTCAGGACGTGCTA: 8.47 z-score
TCAGTTACCCATCTCAAACTGTGCTAG: 0.88 z-score
TCACCTTTGTTTTTTTCACTGTGCTAG: 1.48 z-score
TCATTTTCCCCCCTCACACTGTGCTAG: 1.09 z-score
TCATCACTCTGTCCCTCACTGTGCTAG: 1.15 z-score
GACGGACTGCTTATCCTGACGTGCTAG: -0.189 z-score

For quick reference, copied from above (study 3):
CAGAAGACUACAGGCUGGUGUCCCUAGAGGGCCCAAUACAGUCAAUUCCAACCUCUAAGUCGGGGAAAGGUGACAGGUUUCCUGGUGCUGGUGUGCACAGGGGCAGGCAG: 0.474
UAUUUGUUGGCAUGCUUACAACACAUGUCCAUUAAAGUUCAUUUGGUCCUUUUAUUUUCAUUGUUUUCUUGGUUAGUGAUUUCAUUUGCAUAAACAUUAAUUAUCUCUGC: 0.608
AGUUUAGCAAGCAACUGAGAUUUAAGUCUCUCUGGCCCUAAGAGGUUUUUCCUCUUUGCUCCCUCCAAUCUUGAGAUUGGGUUUUGCUUUAGAGUGCAAGUAUCAUAAUU: 12.3
UAGCCUUGUGCCCAUUAGGUAACUGAACAAUGAUUCAGCUCUUAGAAUACCUAGGAAGACAGCAAGCAGGGUGACACACGGCUGUGAUCUAAGCAUUCAGAAGACAGAGG: 1.25
AUGCACAUACUUAAAGGACAGAAAUGUCUGGUAAAGUAAUUGUUAAAUAAUGAUAUGUAGCUUUUUAACUUUUUAAAUAAAUAAGAUUUUUUAAUGUGGGUCUCCCUCAG: 0.635
AUUUUUACAUCUAACAAAGUAAAAAAAUUAAAAAGAGGGUAAGAAACGAUUCCGGUGGGAUGAUUUUAACAUGCAAAAUGUCCCUGGGGGUUUCUUCUUUGCUUGCUUUC: 1.16
UUUGUGGUGGCUAAAGGAUCCAGUCCCCUUGGGUCUGUACAUCCCCUAUCCCAUACACGGGGCAGGAGGACGCCACAGACUGGACGCUGAGCGGCCCAGCUCUGGGGGGC: 0.242
AGGCUUUACAUAAGAAAUUAUUAAACAAAACAAGGGGGGCAAUAAAUGUAUAUAACAUUAAUAAUGUCGCGUAGGUGUAGGUUCCUGGAUGCAUUUGGAUGUACAGACUG: 2.62
